Measured values pooled from the literature.
Lines come from different studies, so protocols differ. ± marks the error that the study gave.

SMILES = C[C@H]1C(O)O[C@@H]2O[C@@]3(C)CC[C@H]4[C@H](C)CCC1[C@@]24OO3 (stereo partly drawn); cell line = CEM/ADR5000 (multidrug-resistant); effect on = cell viability; technique = XTT; notes = 10% fetal calf serum; IC50 = 1.84 ± 0.31 µM
SMILES = COc1c(C)c(OS(=O)(=O)c2ccccc2)c(C)c(O)c1C(=O)/C=C/c1ccccc1; cell line = CL normal liver cells; effect on = cytotoxicity; technique = sulforhodamine B; time = 72 h; IC50 = 29 µM
SMILES = COc1ccc(C=C2SC(N3N=C(c4cccs4)CC3c3ccc(F)cc3)=NC2=O)cc1 (stereo not drawn); cell line = MCF-10A; effect on = cell growth or viability; IC50 = 39.7 µM
SMILES = Cc1[nH][n+]([Pt-2]([Cl])([n+]2[nH]c(C)c(CSCc3ccccc3)c2C)[n+]2[nH]c(C)c(CSCc3ccccc3)c2C)c(C)c1CSCc1ccccc1.Cl; cell line = U-937; effect on = cytotoxicity; technique = 7-AAD flow cytometry; time = 24 h; IC50 = 0.31 ± 0.02 µM
SMILES = O=C1N=C(N2N=C(c3cccs3)CC2c2ccc(F)cc2)SC1=Cc1ccc(O)cc1 (stereo not drawn); cell line = MCF-10A; effect on = cell growth or viability; IC50 = 72.8 µM
SMILES = Cc1[nH][n+]([Pd-2]([Br])([Br])[n+]2[nH]c(C)c(CSC3CCCCC3)c2C)c(C)c1CSC1CCCCC1; cell line = U-937; effect on = cytotoxicity; technique = 7-AAD flow cytometry; time = 24 h; IC50 = 0.28 ± 0.04 µM
SMILES = C[C@H]1C(OC(=O)CCC(=O)O)O[C@@H]2O[C@@]3(C)CC[C@H]4[C@H](C)CCC1[C@@]24OO3 (stereo partly drawn); cell line = CEM/ADR5000 (multidrug-resistant); effect on = cell viability; technique = XTT; notes = 10% fetal calf serum; IC50 = 0.46 ± 0.03 µM
SMILES = N.N.O=C(CCCc1ccccc1)[O][Pt]([Cl])([Cl])[O]C(=O)CCCc1ccccc1; cell line = HCT-116 p53+/+; effect on = cytotoxicity; time = 72 h; IC50 = 0.22 ± 0.03 µM
SMILES = C[C@@H]1CCC2[C@]34OO[C@](C)(CC[C@@H]13)O[C@H]4OC[C@]2(C)O (stereo partly drawn); cell line = CEM/ADR5000 (multidrug-resistant); effect on = cell viability; technique = XTT; notes = 10% fetal calf serum; IC50 = 90 ± 4.57 µM
SMILES = Cc1ccccc1C=NNC(=O)c1ccc(-c2nc3cc(F)ccc3[nH]2)cc1; cell line = CCD-841 CoN; effect on = cytotoxicity; technique = MTT; time = 24 h; notes = 10% FBS; IC50 = 210 µg/mL
SMILES = CCCC(=O)Oc1c(C)c(OC)c2c(/C=C/c3ccccc3)c(CC)c(=O)oc2c1C; cell line = CL normal liver cells; effect on = cytotoxicity; technique = sulforhodamine B; time = 72 h; IC50 = > 50 µM
SMILES = C[C@@H]1O[C@@H](OC(=O)/C=C/c2ccc(O)cc2)[C@H](OC(=O)/C=C/c2ccc(O)cc2)[C@H](O)[C@H]1O; cell line = MCF-10A; effect on = cytotoxicity; technique = MTT; time = 48 h; IC50 = 17.4 ± 0.86 µM
SMILES = CCCCn1cc(C(=O)O)c(=O)c2cc(F)c(N)c([N+](=O)[O-])c21; cell line = HCT-116; effect on = cell growth; technique = SRB; time = 72 h; IC50 = 133 ± 6.67 µg/mL
SMILES = COc1c(C)c(O)c(C(=O)C=Cc2ccccc2)c(OC)c1C; cell line = CL normal liver cells; effect on = cytotoxicity; technique = sulforhodamine B; time = 72 h; IC50 = 25.4 µM
SMILES = CC1=[N+]2N=C(c3ccccc3)[O][Pd-2]2([Cl])[O+]=C2Oc3ccccc3C=C21 (stereo not drawn); cell line = WI-38; effect on = cytotoxicity; technique = MTT; time = 48 h; IC50 = 45.2 ± 2.7 µM
